Measured values pooled from the literature.
Each line is one published result; not all experiments were run side by side. Values joined by “and” are separate records of one study, mostly repeats; a detail may differ. ± marks the error that the study gave.
XPO1: Exportin-1 (XPO1, Homo sapiens, UniProt O14980)

For `CN(C(=O)C(C)(C)c1cc(C(F)(F)F)cc(C(F)(F)F)c1)c1cnc(N2C[C@H]3COCCN3C[C@H]2CO)cc1-c1ccc(F)cc1[14CH3]`, the Vmax was 282 pmol/min/mg (substrate, refers to: M30/34 formation; human liver microsomes).
For `CCN(CC)C(=S)S`, activity read “inactive” (Tyrosine-protein phosphatase non-receptor type 22 (PTPN22, Homo sapiens, UniProt Q9Y2R2); enzyme activity; concentration not given, added: DiFMUP).
Under activity, `O=C(O)c1ccccc1NC1=NS(=O)(=O)c2ccccc21` is recorded as “inactive” (Pyruvate kinase PKLR (PKLR, Homo sapiens, UniProt P30613); enzyme activity, activator; 10 µM).
For `O=C(COP(=O)(O)O)[C@@H](O)[C@H](O)[C@H](O)COP(=O)(O)O`, “thermal stability ratio” read 0.667 and 0.5 and 0.6 (XPO1; thermal proteome profiling; HepG2 cell lysate; concentration not given, 57 over 37 °C; baseline: compound over control).
`COc1cc(NC(C)CCCN)c2ncccc2c1` (centres unmarked) gave a koff of 1.55e-06 s⁻¹ (Nuclear receptor subfamily 2 group C member 2, ligand-binding domain (Homo sapiens, UniProt P49116); SPR imaging; 600 nM).
`NCCCC(=O)O`: “normalised MST signal” -0.0782 (Sodium- and chloride-dependent taurine transporter (SLC6A6, Homo sapiens, UniProt P31641, G62A); binding, microscale thermophoresis; 488 nM, room temperature, added: 50 nM labelled protein; higher = more binding).
`Cc1cccc(N2CC(C(=O)O)CC2=O)c1` (centres unmarked) has a fold enrichment of 1.51 (F-box only protein 22, with SKP1 (Homo sapiens, UniProt Q8NEZ5); binding, affinity selection mass spectrometry; baseline: other proteins in batch).
For `CC(C)C[C@H](NC(=O)C[C@H](O)[C@H](CC(C)C)NC(=O)[C@H](Cc1c[nH]cn1)NC(=O)CNC(=O)[C@@H](NC(=O)[C@H](C)NC(=O)[C@H](Cc1c[nH]c2ccccc12)NC(=O)[C@H](CCC(N)=O)NC(=O)[C@@H](Cc1ccccc1)NC(=O)COCCOCCNC(=O)CCC(C(=O)O)N1CCN(CC(=O)O)CCN(CC(=O)O)CCN(CC(=O)O)CC1)C(C)C)C(N)=O` (some centres unmarked) [lutetium-177 labelled], the tissue uptake was 0.6 ± 0.4 %ID/g (BALB/c nu/nu mice, female, bone; 100 pmol, 30 min, time course 0.5 h, added: PA 300 µg).
`Cc1ncccc1OC[C@H]1CN(CCN2CCc3ccccc32)CCO1` has an inhibition of 26.5% (5-hydroxytryptamine receptor 1A (HTR1A, Homo sapiens, UniProt P08908); radioligand binding; concentration not given, added: [3H]8-OH-DPAT).
The remaining activity of `Cc1cc(Nc2cc(N3CCN(C)CC3)nc(Sc3ccc(NC(=O)C4CC4)cc3)n2)[nH]n1` is reported as 92% (MAP kinase-activated protein kinase 2 (MAPKAPK2, Homo sapiens, UniProt P49137); kinase activity, KinaseProfiler; 0.03 µM, species human; baseline: control).
The necrosis of `CCN(CC)CCCC(C)Nc1ccnc2cc(Cl)ccc12` (centres unmarked) is reported as 0.64 ± 0.14 (COS-7; 100 µM, 24 h, 0.1% DMSO, unit not given; baseline: control).
For `Nc1ncnc2c1ncn2[C@@H]1O[C@H](COP(=O)(O)CP(=O)(O)OP(=O)(O)O)[C@@H](O)[C@H]1O`, the calcium influx was 0% (P2X purinoceptor 1 (P2RX1, Homo sapiens, UniProt P51575, L218T); calcium influx; 3.16 nM; baseline: ionomycin response).
The reaction velocity of `Nc1nc2c(ncn2[C@@H]2O[C@H](COP(=O)(O)O)[C@@H](O)[C@H]2O)c(=O)[nH]1` is reported as 0.126 µM/s and 0.119 µM/s and 0.112 µM/s (GUK1 (Homo sapiens, UniProt Q16774); enzyme activity, NADH-coupled; 500 µM, added: KCl 50 mM).
`CC[C@@H]1[C@H](F)C(=O)N[C@@H]1COc1nccc2cc(C(N)=O)c(OC)cc12` has an inhibition of -8% (Serine/threonine-protein kinase MARK2 (MARK2, Homo sapiens, UniProt Q7KZI7); ATP-site probe binding, ActivX profiling; THP-1 cell lysate; 0.01 mM, Lys1 site).
`CC(C)C[C@@H]1NC(=O)[C@H](C(C)C)NC(=O)CNC(=O)[C@H](CC(N)=O)NC(=O)[C@@H]2CCCN2C(=O)[C@H](Cc2ccc(O)cc2)NC(=O)[C@H](CCCNC(=N)N)NC(=O)[C@H](Cc2ccccc2)NC(=O)[C@@H](NC(=O)[C@H](CCCCN)NC(=O)[C@@H]2CCCN2C(=O)[C@H](C)NC(=O)[C@H](C)NC(=O)[C@@H](N)Cc2ccc(O)cc2)CSSC[C@@H](C(=O)N[C@H](C(N)=O)[C@@H](C)O)NC(=O)[C@H](C)NC1=O` has a -ΔH of 1.78 kcal/mol (Alpha-2-HS-glycoprotein, asialo (AHSG, Bos taurus, UniProt P12763); binding, isothermal titration calorimetry; pH 7.0, 25 °C, added: asialofetuin).
`CC[C@H](C)[C@@H]1NC(=O)[C@H](CCCNC(=N)N)NC(=O)[C@@H]2CCCN2C(=O)[C@H](Cc2ccccc2)NC(=O)[C@H]([C@@H](C)O)NC(=O)CNC(=O)[C@H](CC(C)C)NC(=O)[C@@H]2CCCN2C(=O)[C@H]([C@@H](C)O)NC(=O)[C@H](Cc2c[nH]c3ccccc23)NC(=O)[C@H](Cc2ccc(O)cc2)NC(=O)[C@H]([C@@H](C)CC)NC(=O)[C@H]([C@@H](C)O)NC(=O)[C@H]([C@@H](C)O)NC(=O)[C@@H](Cc2ccc(O)cc2)NC(=O)CSC[C@@H](C(N)=O)NC(=O)[C@H](CCCNC(=N)N)NC1=O` gave a -TΔS of 1.4 ± 0.9 kcal/mol (VPS35/VPS29 (Homo sapiens, UniProt Q96QK1+Q9UBQ0); binding, ITC; 25 °C, heterodimer).
`CCN1CCC[C@H]1CNC(=O)c1c(O)c(Cl)cc(Cl)c1OC` — result for “log2 fold change”: -0.252 (G-protein coupled receptor 37-like 1 (GPR37L1, Homo sapiens, UniProt O60883); β-arrestin recruitment, TANGO luminescence; concentration not given; baseline: basal luminescence).
For `C=C1C(=O)O[C@@H]2C[C@@]3(C)CCCC(=C)[C@@H]3C[C@H]12`, the necrotic cells was 1.61 ± 0.93 (COS-7; 30 µM, 24 h, 0.1% DMSO, unit not given; baseline: vehicle control).
The cell viability of `COc1cc2c(c(OC)c1OC)C(=O)c1c(cc(C)c(O)c1OC)C2=O` is reported as 53 ± 8.76% (HepaRG co-cultured with HK-2; MTT; 266.67 µM, 48 h; baseline: untreated control).
Under “cells with nuclear reporter”, `CCS(=O)(=O)c1nc(C2CC2)cc(C(F)(F)F)n1` is recorded as 1.76% and 2.59% and 1.85% (XPO1; nuclear export, high content imaging; HeLa Kyoto reporter; 0.0158 µM, 2 h).

Excerpt of the above:
For `CCN(CC)C(=S)S`, activity read “inactive” (Tyrosine-protein phosphatase non-receptor type 22 (PTPN22, Homo sapiens, UniProt Q9Y2R2); enzyme activity; concentration not given, added: DiFMUP).
